{"data": "Assay results pooled from the literature", "RET": "Proto-oncogene tyrosine-protein kinase receptor Ret (RET, Homo sapiens, UniProt P07949)", "note": "Compare with care: the assays were run in different laboratories. Several values in a cell are separate wells, animals, samples, runs or records.", "chain of UniProt P07949 (whole entry, unmodified, looked up)": "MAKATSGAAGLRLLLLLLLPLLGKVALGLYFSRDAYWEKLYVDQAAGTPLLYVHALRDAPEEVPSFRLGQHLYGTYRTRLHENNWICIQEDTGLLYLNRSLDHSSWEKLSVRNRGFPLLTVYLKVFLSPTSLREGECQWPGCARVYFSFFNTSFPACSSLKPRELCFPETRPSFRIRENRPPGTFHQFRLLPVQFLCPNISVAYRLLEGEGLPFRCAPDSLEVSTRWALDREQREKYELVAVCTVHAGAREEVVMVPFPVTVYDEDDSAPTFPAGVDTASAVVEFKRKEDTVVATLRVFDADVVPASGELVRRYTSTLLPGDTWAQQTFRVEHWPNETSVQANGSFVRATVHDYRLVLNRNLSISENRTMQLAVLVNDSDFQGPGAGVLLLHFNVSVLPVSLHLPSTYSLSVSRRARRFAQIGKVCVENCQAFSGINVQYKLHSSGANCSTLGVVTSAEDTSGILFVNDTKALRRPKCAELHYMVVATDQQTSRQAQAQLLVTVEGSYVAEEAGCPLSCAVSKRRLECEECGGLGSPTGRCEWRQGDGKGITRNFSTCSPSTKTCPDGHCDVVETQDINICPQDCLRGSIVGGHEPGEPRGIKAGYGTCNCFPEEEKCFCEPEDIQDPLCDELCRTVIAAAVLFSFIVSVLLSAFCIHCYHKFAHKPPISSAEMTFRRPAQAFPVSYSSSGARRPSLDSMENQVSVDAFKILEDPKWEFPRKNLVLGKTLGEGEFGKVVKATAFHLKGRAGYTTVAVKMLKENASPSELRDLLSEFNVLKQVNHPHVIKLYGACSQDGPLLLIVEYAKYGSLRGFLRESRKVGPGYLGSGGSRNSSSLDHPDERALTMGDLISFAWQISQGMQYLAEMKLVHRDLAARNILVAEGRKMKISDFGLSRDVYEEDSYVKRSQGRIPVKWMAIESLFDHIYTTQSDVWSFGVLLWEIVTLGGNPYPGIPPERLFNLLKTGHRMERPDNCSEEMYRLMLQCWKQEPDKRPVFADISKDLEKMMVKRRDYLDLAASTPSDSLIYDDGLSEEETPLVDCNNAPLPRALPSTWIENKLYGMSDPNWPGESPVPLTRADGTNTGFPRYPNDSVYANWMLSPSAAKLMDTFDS"}
{"Structure (SMILES)": "C=CC(=O)Nc1cccc(-c2cnc3[nH]cc(C(=O)NC(C)(C)C)c3n2)c1", "target": "RET", "assay": "kinase activity", "conditions": "0.1 µM", "endpoint": "inhibition", "value": "26% and 30%"}
{"Structure (SMILES)": "O=C(Cc1ccc(OCc2ccccc2)cc1)NC1(C(=O)O)CCN(C(=O)c2ccc(-c3cccc(Cl)c3)cc2)CC1", "target": "RET", "assay": "enzyme activity, inhibitor", "conditions": "10 µM", "endpoint": "activity vs control", "value": "96%"}
{"Structure (SMILES)": "O=C=[N][Ru-4]123([n]4c5ccc(O)cc5c5c6c(c7cc(F)c[n+]1c7c54)C(=O)NC6=O)[S+]1CC[S+]2CC[S+]3CC1 (centres unmarked)", "target": "RET (Homo sapiens, UniProt P07949, V804M)", "assay": "enzyme activity", "conditions": "100 nM, human enzyme, added: 10 µM ATP", "scale": "relative to: untreated", "endpoint": "remaining activity", "value": "28%"}
{"Structure (SMILES)": "Nc1ncc(-c2cc(-c3cnn(CC(F)(F)F)c3)ncc2F)nc1C(=O)NC1CNCC(F)C1 (centres unmarked)", "target": "RET", "assay": "enzyme activity", "conditions": "1 µM", "scale": "relative to: DMSO control", "endpoint": "remaining activity", "value": "85.2%"}
{"Structure (SMILES)": "COc1ccc(NC(=O)Nc2ccc3c(c2)C(=O)N(C(C)CO)CC(C)C(CN(C)Cc2ccc4c(c2)OCO4)O3)cc1 (centres unmarked)", "target": "RET (Homo sapiens, UniProt P07949, V804L)", "assay": "kinase activity", "conditions": "0.03 µM, V804L", "scale": "relative to: control", "endpoint": "remaining activity", "value": "83%"}
{"Structure (SMILES)": "CNC(=O)C[C@H](Cc1ccc(C#N)cc1)NC(=O)c1cc(-c2ccc(CN[C@H](C)c3ccc(C)cc3)o2)ccc1Cl", "target": "RET", "assay": "enzyme activity, inhibitor", "conditions": "1 µM", "endpoint": "activity vs control", "value": "95%"}
{"Structure (SMILES)": "COCC12C(=O)NC3C4(C(OC)CC1O)C1CC5(O)C(OC)C(O)C(OC(C)=O)(C1C5OC(=O)c1ccccc1)C3(O)C(OC)C24 (centres unmarked)", "target": "RET", "assay": "kinase activity, inhibitor, ProQinase kinase profiling", "conditions": "25 µM", "scale": "relative to: control", "endpoint": "remaining activity", "value": "106% and 111%"}
{"Structure (SMILES)": "Cc1cccc(O[C@H]2CCC[C@@H](C(C)CNCc3ccncc3)C2)c1 (relative stereo)", "target": "RET", "assay": "cell-free assay", "conditions": "10 µM", "endpoint": "inhibition", "value": "-3%"}
{"Structure (SMILES)": "CN1CCN(Cc2ccc(-c3ccc(CO[C@H]4CCC[C@@H]4NC(=O)c4cc(-c5cnn(C)c5)cnc4N)cc3)cc2)CC1", "target": "RET", "assay": "enzyme activity, inhibitor", "conditions": "0.1 µM", "endpoint": "inhibition", "value": "0%"}
{"Structure (SMILES)": "NC(=O)[C@@H](O)C[C@H]1CCc2sc3ncnc(O[C@H]4CC[C@H](N5CCOCC5)CC4)c3c21", "target": "RET", "assay": "enzyme activity, inhibitor", "conditions": "10 µM", "endpoint": "inhibition", "value": "35%"}
{"Structure (SMILES)": "C[C@H]1CN(C(=O)c2cn(-c3ccnc(N)n3)c3cc(C#CC4(O)CCCCC4)ccc23)CCN1", "target": "RET", "assay": "enzyme activity, inhibitor, FRET", "conditions": "1 µM", "endpoint": "inhibition", "value": "3%"}
